Assay results from different studies.
Compare with care: the assays were run in different laboratories. ± marks the error that the study gave.

Structure (SMILES) | test | system | setting | endpoint | value
NC(=O)N1c2ccccc2CC(=O)c2ccccc21 | population PK model | human | oral | absorption rate constant | 0.269 h⁻¹
CC(C)N(CCCCOCC(=O)NS(C)(=O)=O)c1cnc(-c2ccccc2)c(-c2ccccc2)n1 | – | healthy human, plasma | oral, population estimate | absorption rate constant | 1.08 h⁻¹
COC(=O)N[C@H](C(=O)N1CCC[C@H]1c1nc(-c2ccc(-c3ccc(-c4c[nH]c([C@@H]5CCCN5C(=O)[C@@H](NC(=O)OC)C(C)C)n4)cc3)cc2)c[nH]1)C(C)C | population PK full model | human | oral | absorption rate constant | 0.867 h⁻¹
N[C@@H]1c2cccnc2[C@H](OC(=O)N2CCC(n3c(=O)[nH]c4ncccc43)CC2)CC[C@H]1c1cccc(F)c1F | – | human | oral | absorption rate constant | 3.86 h⁻¹
CN1CC[C@@H](NC(=O)Nc2ccc(C#N)cc2)C[C@@H]1c1nc2ccccc2[nH]1 | – | human cancer patients, plasma | oral, population PK base model | absorption rate constant ka | 0.07 h⁻¹
NC(=O)c1cnc2[nH]ccc2c1N[C@@H]1[C@@H]2CC3C[C@H]1C[C@@](O)(C3)C2 | – | healthy human volunteers, plasma | oral, population PK model, bootstrap median | absorption lag time | 0.133 h
CC[C@@H]1CN(C(=O)NCC(F)(F)F)C[C@@H]1c1cnc2cnc3[nH]ccc3n12 | population PK modelling | human | oral, extended-release formulation, outliers excluded | absorption lag time | 0.154 h
Cn1cnc2c(F)c(Nc3ccc(Br)cc3Cl)c(C(=O)NOCCO)cc21 | population PK model | human, plasma | oral, nonlinear absorption model, fasted | absorption lag time | 0.4 h
CNC(=O)c1c(C)oc2cc(Oc3ncnc4cc(OC)c(OC)cc34)ccc12 | final population PK model | human | oral, no proton pump inhibitor | absorption rate constant ka | 2.52 per h
COc1ccc(-n2nc(C(N)=O)c3c2C(=O)N(c2ccc(N4CCCCC4=O)cc2)CC3)cc1 | – | human, plasma | oral, Final population PK model | absorption rate constant | 0.486 ± 0.0215 h⁻¹
C[C@@H]1CCO[C@H]2Cn3cc(C(=O)NCc4ccc(F)cc4F)c(=O)c(O)c3C(=O)N12 | population PK model | paediatric humans, plasma | oral, dispersible tablet or granules | absorption rate constant | 1.74 h⁻¹
COc1cc(N2CCC3(CCN(C)CC3)CC2)ccc1Nc1ncc(Cl)c(Nc2ccccc2P(C)(C)=O)n1 | population PK model | human fed | oral, base structural model | absorption lag time | 0.473 h
NC(N)=NCCC[C@@H](N)C(=O)N[C@@H](CCCN=C(N)N)C(=O)N1CCC[C@H]1C(=O)N1C[C@H](O)C[C@H]1C(=O)NCC(=O)N[C@@H](Cc1cccs1)C(=O)N[C@@H](CO)C(=O)N1Cc2ccccc2C[C@@H]1C(=O)N1[C@H](C(=O)N[C@@H](CCCN=C(N)N)C(=O)O)C[C@@H]2CCCC[C@@H]21 | popPK full model bootstrap median | human | subcutaneous | absorption rate constant (ka) | 3.26 h⁻¹
Cc1cn(-c2cc(NC(=O)c3ccc(C)c(Nc4nccc(-c5cccnc5)n4)c3)cc(C(F)(F)F)c2)cn1 | population PK model, typical value | human, plasma | oral, fasted state | absorption lag time (ALAG1) | 0.0866 h
O=C(O)[C@H]1/C(=C/CO)O[C@@H]2CC(=O)N21 | population PK | human, plasma | – | absorption rate constant | 0.801 h⁻¹
NC1(C(=O)N[C@@H](CCO)c2ccc(Cl)cc2)CCN(c2nc[nH]c3nccc2-3)CC1 | – | human | tablets | absorption lag time | 0.287 h
